{"data": "Measured values from different studies", "note": "Protocols differ between the studies behind these lines. Values joined by “and” are separate records of one study, mostly repeats; a detail may differ. Numbers after ± are the reported error."}
{"SMILES": "Cc1ccc(S(=O)(=O)N2N=Cc3ccsc3B2O)cc1", "target": "human pancreatic chymotrypsin", "assay": "enzyme activity, inhibitor", "measurement": "IC50", "value": "> 50 µM"}
{"SMILES": "CC(C)(C)c1ccc(C(=O)N2Cc3cccnc3Nc3ccccc32)cc1", "target": "IDH1 R132H", "assay": "2-HG production, RapidFire MS", "test system": "MOG-G-UVW overexpressing IDH1 R132H", "measurement": "IC50", "value": "1.69 µM and 1.46 µM and 1.14 µM"}
{"SMILES": "CC[n+]1cccc2cc(/C=N/NC(=O)c3cccc(C(=O)N/N=C/c4ccc5c(ccc[n+]5CC)c4)n3)ccc21", "target": "telomeric G4 DNA hybrid-2", "assay": "FRET melting", "setting": "1 µM, DNA 0.2 µM, with: duplex DNA competitor 10 µM", "measurement": "ΔTm", "value": "20.5 ± 1.3 °C"}
{"SMILES": "NCCCn1cc(COc2cc(C(=O)Nc3cc(OCCN)c4ccccc4n3)nc(C(=O)Nc3cc(OCCN)c4ccccc4n3)c2)nn1", "target": "K-ras G-quadruplex DNA", "assay": "FRET melting", "setting": "1 µM, pH 7.4, with: 60 mM potassium", "measurement": "ΔTm", "value": "5.8 ± 0.3 K"}
{"SMILES": "O=S(=O)(NCc1ccncc1)c1ccc(C2CCCCC2)cc1", "target": "PU.1, mouse", "assay": "reporter gene, inhibitor, luminescence", "test system": "BV-2 PU.1 luciferase reporter", "setting": "dose not given", "measurement": "maximal inhibition", "value": "51%"}
{"SMILES": "O=C(N/N=C/c1cc[n+](CC2CC2)c2ccccc12)C(=O)N/N=C/c1cc[n+](CC2CC2)c2ccccc12", "target": "telomeric G4 DNA hybrid-2", "assay": "FRET melting", "setting": "1 µM, DNA 0.2 µM", "measurement": "ΔTm", "value": "4.1 ± 0.9 °C"}
{"SMILES": "Cc1cccc(O[C@H]2CCC[C@@H](C(C)CNCc3ccncc3)C2)c1 (relative stereo)", "target": "sodium channel site 2 (human)", "assay": "binding, Cerep safety panel", "setting": "10 µM", "measurement": "inhibition", "value": "84%"}
{"SMILES": "O=C(O)C(Cc1c[nH]cn1)N1C(=O)c2ccc3c4ccc5c6c(ccc(c7ccc(c2c37)C1=O)c64)C(=O)N(CCN1CCCCC1)C5=O (stereo not drawn)", "target": "telomerase", "assay": "telomerase activity, inhibitor, TRAP", "test system": "PC-3", "setting": "48 h", "measurement": "IC50", "value": "9.8 ± 0.4 µM"}
{"SMILES": "c1ccc(-c2n[nH]cc2-c2ccnc3ccccc23)nc1", "target": "orf19.4144 Candida albicans", "assay": "kinase binding, MIB/MS competition", "test system": "Candida albicans lysate", "setting": "10 µM", "scale": "reference: DMSO", "measurement": "log2 fold change", "value": -0.31}
{"SMILES": "C=CC(=O)N1[C@@H](c2ccc3c(c2)OCO3)c2[nH]c3ccccc3c2C[C@H]1C(=O)N1CCN(C)CC1", "target": "CCNE1 WT-3xFLAG:CDK2 complex", "assay": "co-IP TMT proteomics, item: CKS2", "test system": "HEK-293T", "setting": "20 µM, 6 h", "scale": "reference: DMSO", "measurement": "log2 fold change", "value": 0.14}
{"SMILES": "O=C(N/N=C/c1cc[n+](Cc2ccccc2)c2ccccc12)c1cc(C(=O)N/N=C/c2cc[n+](Cc3ccccc3)c3ccccc23)ncn1", "target": "telomeric G4 DNA hybrid-2", "assay": "FRET melting", "setting": "1 µM, DNA 0.2 µM, with: duplex DNA competitor 10 µM", "measurement": "ΔTm", "value": "15.3 ± 0.1 °C"}
{"SMILES": "C=CC(=O)Nc1cccc(Cn2ncc3cnc(Nc4cnn(CCOC)c4)nc32)c1", "target": "TGFBR1 human", "assay": "binding, KINOMEscan", "setting": "100 nM", "scale": "lower = stronger binding", "measurement": "percent of control", "value": "100%"}
{"SMILES": "C=C1CN(S(=O)(=O)c2ccc(C)cc2)CCCN(Cc2ccccc2)CCCN(S(=O)(=O)c2ccc(C)cc2)C1", "target": "AP-2 complex subunit sigma", "assay": "SILAC mass spectrometry", "test system": "SUP-T1", "setting": "10 µM, 17 h", "scale": "reference: DMSO over compound (forward)", "measurement": "protein level ratio", "value": 3.27}
{"SMILES": "C[n+]1cc(/C=N/NC(=O)c2cccc(C(=O)N/N=C/c3cc4ccccc4[n+](C)c3)c2)cc2ccccc21", "target": "telomeric G4 DNA hybrid-2", "assay": "FRET melting", "setting": "1 µM, DNA 0.2 µM, with: duplex DNA competitor 10 µM", "measurement": "ΔTm", "value": "13.3 ± 0.7 °C"}
{"SMILES": "C[C@@H]1CN(c2cc(=O)n(C)c3ccc(C#N)nc23)[C@@H](C)CN1Cc1ccc(S(=O)(=O)n2cnc(C3CC3)n2)cc1", "target": "DGKα human", "assay": "PA production, inhibitor, PILS-Nir1 biosensor", "test system": "HEK293A FKBP-DGKα", "setting": "with: rapamycin", "measurement": "IC50", "value": "0.34 µM"}
{"SMILES": "O=C(N/N=C/c1cc[n+](CC2CC2)c2ccccc12)c1cc(C(=O)N/N=C/c2cc[n+](CC3CC3)c3ccccc23)ncn1", "target": "telomeric G4 DNA hybrid-2", "assay": "FRET melting", "setting": "1 µM, DNA 0.2 µM, with: duplex DNA competitor 10 µM", "measurement": "ΔTm", "value": "9.4 ± 0.2 °C"}
{"SMILES": "Nc1ncc(-c2cc(-c3cnn(CC(F)(F)F)c3)ncc2F)nc1C(=O)NC1CNCC(F)C1 (stereo not drawn)", "target": "LYN", "assay": "KINOMEscan", "setting": "1 µM", "scale": "reference: DMSO control", "measurement": "remaining binding", "value": "100%"}
{"SMILES": "N#Cc1ccc(-c2cnc(C(=O)CCCCCCc3ccccc3)o2)nc1", "target": "serine hydrolases (mouse)", "assay": "competitive ABPP", "test system": "mouse brain membrane proteome", "measurement": "off-target inhibition concentration", "value": "100 µM"}
{"SMILES": "C[n+]1ccc(/C=N/NC(=O)c2cccc(C(=O)N/N=C/c3cc[n+](C)cc3)c2)cc1", "target": "telomeric G4 DNA hybrid-2", "assay": "FRET melting", "setting": "1 µM, DNA 0.2 µM, with: duplex DNA competitor 10 µM", "measurement": "ΔTm", "value": "2.3 ± 0.3 °C"}
{"SMILES": "CN1CCCNC(=O)CCC(=O)NCCCN(C)CCCNc2cccc3c2C(=O)c2cccc(c2C3=O)NCCC1", "target": "c-myc G-quadruplex DNA", "assay": "DNA thermal stabilisation, CD melting", "setting": "4.5 µM, pH 7.4, with: 1.5 µM DNA, 5 mM KCl", "measurement": "ΔTm", "value": "9 ± 2.8 °C"}
{"SMILES": "NCCOc1cc(NC(=O)c2cc(OCc3cn([C@H]4O[C@@H](CO)[C@H](O)[C@@H](O)[C@@H]4O)nn3)cc(C(=O)Nc3cc(OCCN)c4ccccc4n3)n2)nc2ccccc12", "target": "c-myc G-quadruplex DNA", "assay": "FRET melting", "setting": "1 µM, pH 7.4, with: 60 mM potassium", "measurement": "ΔTm", "value": "11.1 ± 0.4 K"}
{"SMILES": "CC(=O)NCCCN(C)CCCNc1cccc2c1C(=O)c1cccc(NCCCN(C)CCCNC(C)=O)c1C2=O", "target": "c-myc G-quadruplex DNA", "assay": "DNA thermal stabilisation, CD melting", "setting": "4.5 µM, pH 7.4, with: 1.5 µM DNA, 5 mM KCl", "measurement": "ΔTm", "value": "9.2 °C"}
{"SMILES": "O=C1c2ccc3c4ccc5c6c(ccc(c7ccc(c2c37)C(=O)N1CCN1CCCCC1)c64)C(=O)N(CCN1CCCCC1)C5=O", "target": "telomerase", "assay": "telomerase activity, inhibitor, TRAP", "test system": "LNCaP", "setting": "48 h", "measurement": "IC50", "value": "10.7 ± 0.4 µM"}
{"SMILES": "Fc1ccc(Nc2nc(NC3CCCCC3)c3ccccc3n2)cc1F", "target": "β2AR/β1AR TM6 chimera", "assay": "β-arrestin2 recruitment, antagonist, BRET", "scale": "reference: isoprenaline maximal response", "measurement": "maximal inhibition", "value": "1.5%"}
{"SMILES": "C[n+]1cccc2cc(/C=N/NC(=O)c3cncc(C(=O)N/N=C/c4ccc5c(ccc[n+]5C)c4)n3)ccc21", "target": "telomeric G4 DNA hybrid-2", "assay": "FRET melting", "setting": "1 µM, DNA 0.2 µM", "measurement": "ΔTm", "value": "20.7 ± 1 °C"}
{"SMILES": "O=C(Nc1cc(OCCN2CCCC2)c2ccccc2n1)c1cccc(C(=O)Nc2cc(OCCN3CCCC3)c3ccccc3n2)n1", "target": "c-myc G-quadruplex DNA", "assay": "FRET melting", "setting": "1 µM, pH 7.4, with: 60 mM potassium", "measurement": "ΔTm", "value": "2.9 ± 0.1 K"}
{"SMILES": "CC[n+]1cccc2cc(/C=N/NC(=O)c3cccc(C(=O)N/N=C/c4ccc5c(ccc[n+]5CC)c4)c3)ccc21", "target": "telomeric G4 DNA hybrid-2", "assay": "FRET melting", "setting": "1 µM, DNA 0.2 µM, with: duplex DNA competitor 10 µM", "measurement": "ΔTm", "value": "6.7 ± 0.9 °C"}
{"SMILES": "Fc1ccc(Nc2nc(NC3CCCCC3)c3cc(C(F)(F)F)ccc3n2)cc1F", "target": "β2AR/β1AR TM6 chimera", "assay": "β-arrestin2 recruitment, antagonist, BRET", "setting": "with: isoprenaline 1 µM", "measurement": "pIC50", "value": 6.7}
{"SMILES": "CN(C)CCOc1cc(NC(=O)c2cccc(C(=O)Nc3cc(OCCN(C)C)c4ccccc4n3)n2)nc2ccccc12", "target": "K-ras G-quadruplex DNA", "assay": "FRET melting", "setting": "1 µM, pH 7.4, with: 60 mM potassium", "measurement": "ΔTm", "value": "9.9 ± 0.4 K"}
{"SMILES": "CNC(=O)C1CCN(c2cc(C)c(F)cc2NC(=O)c2ccc(-c3cc(O)ccc3C)c(C)c2)CC1", "target": "FLT3 ITD D835V (human)", "assay": "binding, KINOMEscan", "setting": "1000 nM", "measurement": "percent of control", "value": "84%"}
